# Measurements from different studies.
# Parts stem from different laboratories: compare values within a part only. Changes are numbered by the printed parent chain.
# Sequence of UniProt Q9Y2X8 (whole entry, looked up): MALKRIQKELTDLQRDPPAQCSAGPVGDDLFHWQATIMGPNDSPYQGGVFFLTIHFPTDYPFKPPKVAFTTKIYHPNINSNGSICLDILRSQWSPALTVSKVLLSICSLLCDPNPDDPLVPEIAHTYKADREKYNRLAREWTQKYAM

# Block 1 — target: CCND3, cyclin fold, Cln2 fusion (human); technique: yeast growth competition, sequencing; sample: yeast; setting: weak parent motif; relative to: not given; reading: higher = stronger binding
# Parent: viral docking peptide; PGASRRLFGSSAD; partner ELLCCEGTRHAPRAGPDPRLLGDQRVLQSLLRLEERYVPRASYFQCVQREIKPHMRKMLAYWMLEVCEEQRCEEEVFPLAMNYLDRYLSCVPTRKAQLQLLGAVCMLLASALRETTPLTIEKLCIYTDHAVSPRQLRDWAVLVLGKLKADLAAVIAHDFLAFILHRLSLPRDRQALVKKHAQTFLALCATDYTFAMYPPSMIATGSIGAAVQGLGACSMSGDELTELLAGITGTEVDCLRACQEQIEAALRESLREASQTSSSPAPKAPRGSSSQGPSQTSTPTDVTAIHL
Change,normalised enrichment score
S10A,0.0611
R6A,0.113
L7A,0.0958
R5K F8L,0.0672
G2A,0.202
R5A,0.155

# Block 2 — technique: competition protein-binding microarray; form: double-stranded DNA, one strand shown; sample: in vitro; concentration: 2 µM; added: Cbf1 competitor, 0.05 µM; reading: higher = stronger binding; shared flanks, not repeated: … GTCTTGATTCGCTTGACGCTGCTG
# Target: Phosphate system positive regulatory protein PHO4, full length, GST-tagged (PHO4, Saccharomyces cerevisiae, UniProt P07270, residues 1-312)
# Setting: whole 60-bp probe, lowest competitor level
# Construct (chain): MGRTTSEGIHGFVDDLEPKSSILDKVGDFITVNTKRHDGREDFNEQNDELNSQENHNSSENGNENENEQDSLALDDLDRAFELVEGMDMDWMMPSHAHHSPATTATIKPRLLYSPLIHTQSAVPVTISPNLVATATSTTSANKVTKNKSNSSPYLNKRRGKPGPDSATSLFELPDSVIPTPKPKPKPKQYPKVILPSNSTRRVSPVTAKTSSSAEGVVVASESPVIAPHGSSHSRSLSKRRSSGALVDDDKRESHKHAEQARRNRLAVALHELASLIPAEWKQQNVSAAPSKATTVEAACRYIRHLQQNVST
Strand,fluorescence intensity [a.u.]
CGTCCTAGTGATTTGCACGTGTTTTCCATGAGGAAG,16900
CTAACGAAGGTTTGTCACAAGACTTACAAGCCAAGT,3650
CAGTATTTATCAGTTCTCGAGCAAGCAGAGAAAAGT,3900
CTACGTACAAGTGTATACGTGCCAGTATTTGGACGC,7650
TGCATTCTGAAGTTACACGTCACTAACCAGCACTAT,4720
CCTCTTTACATTTGGCATGCGTTGACACTATAGATT,8930
GCCATCCAAAACTTGCCCGTGGTGAACTCATTCGGA,6540
CGTCCTAGTGATTGTTATGTGGGTGCCATGAGGAAG,6680

# Block 3 — effect on: peptide-MHC binding; form: peptide; concentration: concentration not given
# Target: HLA class I histocompatibility antigen, A alpha chain, allele A*80:01 (Homo sapiens, UniProt P04439)
Molecule,binding
GFPFFIMPK,inactive
ATRSHRPLI,inactive
FSDLCNFLI,inactive
AEDLADHHV,inactive
LESLTDREL,inactive
FLAAECPFL,inactive

# Further values, each from its own experiment
Molecule,target,test,system,setting,scale,endpoint,value
ANYISAHTKDCPKCNICIEKNGGCNHMQCSKCKHDFCWMCLGDWKTHGSE (ARIH2 RING domain (UniProt O95376)),UBE2D4 UBC core domain (UniProt Q9Y2X8),yeast two-hybrid,"peptide, yeast",mostly zero background,"relative to: not given, higher = stronger interaction",lacZ reporter activity,0

# A few entries again (block 2):
Strand,fluorescence intensity [a.u.]
CGTCCTAGTGATTGTTATGTGGGTGCCATGAGGAAG,6680
CAGTATTTATCAGTTCTCGAGCAAGCAGAGAAAAGT,3900
CCTCTTTACATTTGGCATGCGTTGACACTATAGATT,8930
